Results of several laboratories.
Lines come from different studies, so protocols differ. Values joined by “and” are separate records of one study, mostly repeats; a detail may differ. Numbers after ± are the reported error.
Genome polyprotein NS3 helicase domain: Genome polyprotein, NS3 helicase domain (Hepatitis C virus genotype 1b, UniProt Q9WMX2)
Chain of UniProt P53778 (whole entry, looked up): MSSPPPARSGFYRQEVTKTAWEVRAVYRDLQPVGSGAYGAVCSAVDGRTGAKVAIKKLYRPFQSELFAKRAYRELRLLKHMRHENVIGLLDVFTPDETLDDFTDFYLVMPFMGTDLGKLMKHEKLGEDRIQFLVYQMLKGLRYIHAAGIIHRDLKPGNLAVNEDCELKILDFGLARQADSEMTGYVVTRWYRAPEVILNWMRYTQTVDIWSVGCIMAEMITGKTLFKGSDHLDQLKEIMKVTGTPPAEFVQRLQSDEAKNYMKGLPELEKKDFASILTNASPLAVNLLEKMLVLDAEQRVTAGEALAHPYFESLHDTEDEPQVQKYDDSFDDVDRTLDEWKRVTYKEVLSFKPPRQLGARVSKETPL
Chain of UniProt Q96P65 (whole entry, looked up): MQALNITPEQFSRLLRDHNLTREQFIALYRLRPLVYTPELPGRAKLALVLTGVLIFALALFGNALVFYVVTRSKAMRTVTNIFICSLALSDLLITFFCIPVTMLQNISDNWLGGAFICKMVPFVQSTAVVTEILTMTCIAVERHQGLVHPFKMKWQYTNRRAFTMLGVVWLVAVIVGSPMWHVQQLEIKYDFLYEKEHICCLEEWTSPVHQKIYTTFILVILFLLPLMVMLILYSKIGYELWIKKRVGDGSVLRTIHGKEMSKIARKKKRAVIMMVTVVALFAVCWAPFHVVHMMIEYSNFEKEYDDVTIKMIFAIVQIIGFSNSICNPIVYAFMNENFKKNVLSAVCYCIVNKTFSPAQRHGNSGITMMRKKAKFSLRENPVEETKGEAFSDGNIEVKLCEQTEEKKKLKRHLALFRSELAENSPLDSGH
Chain of UniProt P05067 (whole entry, looked up): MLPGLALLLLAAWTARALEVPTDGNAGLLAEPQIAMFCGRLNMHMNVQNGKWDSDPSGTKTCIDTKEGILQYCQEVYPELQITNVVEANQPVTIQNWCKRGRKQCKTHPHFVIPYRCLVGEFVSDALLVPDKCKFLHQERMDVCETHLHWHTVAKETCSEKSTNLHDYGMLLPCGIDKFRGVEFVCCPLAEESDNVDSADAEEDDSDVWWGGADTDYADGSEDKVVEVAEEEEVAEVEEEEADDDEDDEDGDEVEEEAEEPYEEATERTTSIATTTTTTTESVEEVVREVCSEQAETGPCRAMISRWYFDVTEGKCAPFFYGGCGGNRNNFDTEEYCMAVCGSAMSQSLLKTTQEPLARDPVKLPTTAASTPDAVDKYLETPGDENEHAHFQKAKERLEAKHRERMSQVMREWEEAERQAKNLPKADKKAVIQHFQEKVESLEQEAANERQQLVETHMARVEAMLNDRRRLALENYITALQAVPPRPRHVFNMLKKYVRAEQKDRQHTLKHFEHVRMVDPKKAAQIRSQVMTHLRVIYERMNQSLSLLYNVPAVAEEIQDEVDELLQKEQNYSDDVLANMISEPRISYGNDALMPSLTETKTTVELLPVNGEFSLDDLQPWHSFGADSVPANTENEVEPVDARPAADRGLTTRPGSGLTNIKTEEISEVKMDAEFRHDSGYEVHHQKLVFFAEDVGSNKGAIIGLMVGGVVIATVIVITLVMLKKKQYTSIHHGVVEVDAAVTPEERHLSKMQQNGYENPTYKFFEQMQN
Chain of UniProt P50406 (whole entry, looked up): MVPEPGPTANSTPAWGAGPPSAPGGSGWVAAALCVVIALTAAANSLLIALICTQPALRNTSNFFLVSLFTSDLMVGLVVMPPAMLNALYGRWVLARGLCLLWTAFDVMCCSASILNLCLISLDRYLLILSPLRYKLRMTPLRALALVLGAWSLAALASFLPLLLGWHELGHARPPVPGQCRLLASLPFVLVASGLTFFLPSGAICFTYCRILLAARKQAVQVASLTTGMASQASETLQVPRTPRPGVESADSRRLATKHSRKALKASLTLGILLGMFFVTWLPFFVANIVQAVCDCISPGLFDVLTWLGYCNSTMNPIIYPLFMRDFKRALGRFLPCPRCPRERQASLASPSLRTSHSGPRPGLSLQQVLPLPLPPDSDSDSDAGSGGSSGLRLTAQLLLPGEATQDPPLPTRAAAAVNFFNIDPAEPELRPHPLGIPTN

Structure (SMILES) | target | assay | system | setting | inhibition
Cn1cccc1-c1cccnc1 | ADRA2B (Homo sapiens, UniProt P18089) | binding |  | 50 µM | -12.9%
O=C(Nc1cccnn1)N1CCC(=Cc2cccc(Oc3ccc(C(F)(F)F)cn3)c2)CC1 | PTGFR (Homo sapiens, UniProt P43088) | radioligand binding, inhibitor |  | 50 µM, human, added: [3H]PGF2alpha | 82%
O=C(O)CC(Cc1ccccc1)C(=O)O (stereo not shown) | N-acyl-aromatic-L-amino acid amidohydrolase (carboxylate-forming) (Acy3, Mus musculus, UniProt Q91XE4) | enzyme activity |  | 1 mM | inhibited
CC1=NN=C(c2ccc(N)cc2)c2cc3c(cc2C1)OCO3.Cl | Genome polyprotein NS3 helicase domain | DNA binding, inhibitor | hepatitis C virus | 100 µM, added: Cy5-dT15 DNA | 3%
CC(C)(C)NCC(O)c1cc(O)cc(O)c1 (stereo not shown) | Gag polyprotein, nucleocapsid protein p7 (gag, Human immunodeficiency virus type 1 group M subtype B, UniProt P04591) | NCp7-RNA binding, AlphaScreen | HIV-1 | 45 µM | > 50%
O=C(Nc1cnccc1Cl)N1CCN(Cc2ccc3c(c2)OC(F)(F)O3)CC1 | GABA transporter, rat | binding |  | 10 µM, added: [3H]GABA | 6%
COc1ccc(N2C(=O)N(c3c(C)cccc3Cl)Cc3cnc(Nc4ccc(C5CCN(C)CC5)cc4OC)nc32)nc1 | SGK2 (Homo sapiens, UniProt Q9HBY8) | kinase activity |  | 0.5 µM | 16%
Cl.NCC(O)c1cc(O)c(O)cc1F (stereo not shown) | Genome polyprotein NS3 helicase domain | DNA binding, inhibitor | hepatitis C virus | 100 µM, added: Cy5-dT15 DNA | 1%
O=c1c(Cl)c(Cl)cnn1Cc1nc2ccccc2c2ccccc12 | Trypanothione synthetase (Leishmania infantum, UniProt A4I2Z3) | enzyme activity |  | 25 µM | 19.7 ± 7.4%
O=C(Nc1cccnn1)N1CCN([C@@H]2CCOc3cc(C(F)(F)F)ccc32)CC1 | HTR6 (Homo sapiens, UniProt P50406) | Cerep BioPrint |  | 20 µM, human 5-HT6 | 50%
CN(C(=O)n1cnc(-c2ccc[n+]([O-])c2)c1)C1CCCCC1 | BRS3 (Homo sapiens, UniProt P32247) | radioligand binding |  | 50 µM | 1%
CC[C@H](C)[C@H](NC(=O)[C@@H](NC(=O)[C@H](N)Cc1ccccc1)C(C)C)C(=O)N[C@@H](C)C(N)=O | APP (Homo sapiens, UniProt P05067) | amyloid-beta aggregation, thioflavin T fluorescence |  | 0.5 µM, 48 h, added: 2 µM amyloid-beta | 78.8%
CN(CCN1CCC(OC(=O)Nc2ccccc2-c2ccccc2)CC1)C(=O)c1ccc(CN2CCC(C(N)=O)CC2)cc1 | guanylyl cyclase | enzyme activity |  | 1 µM | 4%
Cc1ncc(C)n2nc(/C=C/c3nc(N4CCCC4)cc(N4CCOCC4)n3)nc12 | L-type calcium channel dihydropyridine site | radioligand binding |  | 10 µM | 19%
NC(N)=NOCC[C@H](N)C(=O)O | Genome polyprotein NS3 helicase domain | DNA binding, inhibitor | hepatitis C virus | 100 µM, added: Cy5-dT15 DNA | 0%
CC(=O)NC[C@H]1[C@H](O)[C@H](O)[C@@H]2[C@H](O)C[C@@H](CO)N21 | Spodoptera litura β-N-acetylglucosaminidase |  | crude enzyme | 0.00313 µM, run 2, added: p-nitrophenyl GlcNAc | 23.2%
COc1cc(Nc2ncc(F)c(Nc3ccc4c(n3)NC(=O)C(C)(C)O4)n2)cc(OC)c1OC | CDK13 (Homo sapiens, UniProt Q14004) | binding, KINOMEscan |  | 10 µM, CDC2L5 kinase | 0%
Ic1cccc2cnccc12 | central GABA-A receptor (rat) | benzodiazepine site binding, radioligand binding |  | 10 µM, added: flunitrazepam | 16%
C[C@H](C(=O)N[C@H]1COc2ccccc2[C@@H]1S(C)(=O)=O)c1ccc(F)cc1 | Tyrosine-protein kinase Lyn, isoform B (LYN, Homo sapiens, UniProt P07948) | enzyme activity |  | 10 µM, Eurofins selectivity panel | 1%
NC(Cc1cc(O)c(O)cc1O)C(=O)O (racemic) | Genome polyprotein NS3 helicase domain | DNA binding, inhibitor | hepatitis C virus | 100 µM, added: Cy5-dT15 DNA | 22%
O=C(N1CCC2(CC1)C[C@H](CN1CCCCS1(=O)=O)CCO2)C1(c2ccccc2)CCCC1 | Interferon-induced helicase C domain-containing protein 1 (IFIH1, Homo sapiens, UniProt Q9BYX4) | ATPase activity |  | 50 µM | 0%
CCNC(=O)[C@H]1O[C@@H](n2cnc3c(N)ncnc32)[C@H](O)[C@@H]1O | Genome polyprotein NS3 helicase domain | DNA binding, inhibitor | hepatitis C virus | 100 µM, added: Cy5-dT15 DNA | 0%
CN1CCN(c2cc(-c3ccncc3)c(-c3ccc4ccccc4c3)nn2)CC1 | QRFPR (Homo sapiens, UniProt Q96P65) | antagonist, FLIPR |  | 10 µM | 13.2%
FC(F)(F)c1cccc(Nc2nc(NCCOc3ccccc3)nc3[nH]cnc23)c1 | MAPK12 (Homo sapiens, UniProt P53778) | enzyme activity, inhibitor, Thermo Fisher kinase screening |  | 5 µM | 6% and 12%
COC(=O)C1=CCCN(C)C1 | Genome polyprotein NS3 helicase domain | DNA binding, inhibitor | hepatitis C virus | 100 µM, added: Cy5-dT15 DNA | 0%

Repeated from above:
Structure (SMILES) | target | assay | system | setting | inhibition
FC(F)(F)c1cccc(Nc2nc(NCCOc3ccccc3)nc3[nH]cnc23)c1 | MAPK12 (Homo sapiens, UniProt P53778) | enzyme activity, inhibitor, Thermo Fisher kinase screening |  | 5 µM | 6% and 12%
O=C(Nc1cnccc1Cl)N1CCN(Cc2ccc3c(c2)OC(F)(F)O3)CC1 | GABA transporter, rat | binding |  | 10 µM, added: [3H]GABA | 6%
